Published values of several laboratories.
Compare with care: the assays were run in different laboratories. Several values in a cell are separate wells, animals, samples, runs or records. Numbers after ± are the reported error.

SMILES	tested on	test	test system	conditions	how to read	measurement	result
O=C(O)CNC(=O)Cc1ccccc1	–	–	ventricular cardiomyocytes, C57BL/6 mouse	dose not given, 0.348 s	–	sarcomere length	1.72 µm
Cc1cc([C@H]2C[C@H]3[C@@H](C)SC(N)=N[C@@]3(c3ccc(F)cc3F)CO2)on1	–	measured: Aβx-40	Mus musculus wild-type, cerebrospinal fluid	subcutaneous, 50 mg/kg, 5 h	–	Aβ40 level	0.26 ng/mL
Cc1noc(C)c1-c1cc(C(O)(c2ccccn2)c2ccccn2)c2nc(C3CC3)[nH]c2c1	–	measured: HEXIM1 expression	human, peripheral blood	2 mg, day 1, 1604 study	–	maximum induction	8%
O[C@H]1[C@H](O)[C@@H](O)[C@H](O)[C@@H](O)[C@H]1O	–	binding, MIDAS equilibrium dialysis LC-MS	A2AR-BRIL thermostabilized	concentration not given	reference: no-protein control	log2 fold change	-0.682
CC(C)(C)c1sc2ncnc(Oc3c(F)cccc3OC(F)(F)F)c2c1-c1ccc(Cl)cc1	–	paw withdrawal latency	MrgprX1 mice, CCI model	oral, 100 mg/kg, 2 h, day 14 post-CCI, heat hyperalgesia	–	antihyperalgesia	> 100%
O=c1[nH]cnc2c1ncn2[C@H]1C[C@H](O)[C@@H](CO)O1	–	binding, MIDAS equilibrium dialysis LC-MS	A2AR-BRIL thermostabilized	concentration not given	reference: no-protein control	log2 fold change	-0.0662
O=P(O)(O)C(Cl)(Cl)P(=O)(O)O	–	open field test	UT+/+ and UT-/- mice, SAH	23000 µg/mL	–	distance travelled	23 m and 26 m and 21 m and 17 m and 29 m
C[C@H]1C[C@H]2CSC(N)=N[C@@]2(c2nc(NC(=O)c3ccc(OC(F)F)cn3)cs2)CO1	–	measured: Aβx-40	healthy adults, plasma	50 mg once daily, day 4	reference: placebo	percent change from baseline	-63.5%
O=CNc1ccccc1C(=O)O	–	binding, MIDAS equilibrium dialysis LC-MS	A2AR-BRIL thermostabilized	concentration not given	reference: no-protein control	log2 fold change	-0.223
CC(C)NCC(O)c1ccc(O)c(O)c1 (centres unmarked)	–	–	ventricular cardiomyocytes, C57BL/6 mouse	dose not given, 0.292 s	–	sarcomere length	1.71 µm
CC1(C)C(/C=C/C=C/C=C/C=C2\N(CCCCS(=O)(=O)O)c3ccc4ccccc4c3C2(C)C)=[N+](CCCCS(=O)(=O)[O-])c2ccc3ccccc3c21	–	–	mouse MMTV-PyMT mammary tumour model	dose not given, 15 days post-surgery, after image-guided surgery	–	recurrent tumour volume	66.7 mm³
CC(C)C[C@H](NC(=O)C[C@H](O)[C@H](CC(C)C)NC(=O)[C@H](Cc1c[nH]cn1)NC(=O)CNC(=O)[C@@H](NC(=O)[C@H](C)NC(=O)[C@H](Cc1c[nH]c2ccccc12)NC(=O)[C@H](CCC(N)=O)NC(=O)[C@@H](Cc1ccccc1)NC(=O)COCCOCCNC(=O)CCC(C(=O)O)N1CCN(CC(=O)O)CCN(CC(=O)O)CCN(CC(=O)O)CC1)C(C)C)C(N)=O (some centres unmarked) [lutetium-177 labelled]	–	–	BALB/c nu/nu mice, blood	intravenous, 50 pmol, 1 h, together with: PA 300 µg	–	tissue uptake	0.45 ± 0.08 %ID/g
N#C/C(=C\c1ccccc1)n1cncn1	–	–	–	pH 7.4	–	β-elimination rate constant	0.009 min⁻¹
Nc1ccn([C@@H]2O[C@H](COP(=O)(O)OP(=O)(O)OCC(O)CO)[C@@H](O)[C@H]2O)c(=O)n1 (some centres unmarked)	–	binding, MIDAS equilibrium dialysis LC-MS	A2AR-BRIL thermostabilized	concentration not given	reference: no-protein control	log2 fold change	-0.252
C[C@H]1O[C@@H](O[C@H]2CC[C@@]3(C)[C@@H](CC[C@]4(C)[C@@H]3C=C[C@]35OC[C@@]6(CCC(C)(C)C[C@H]63)[C@@H](O)C[C@]54C)[C@]2(C)CO)[C@H](O)[C@@H](O[C@@H]2O[C@H](CO)[C@@H](O)[C@H](O)[C@H]2O)[C@H]1O	–	H&E staining	chronic-plus-binge ethanol mice	dose not given, high dose	–	adipose area	7.12% and 6.73% and 8.55% and 9.73%
C=CCn1c(=O)c2cnc(Nc3ccc(N4CCN(C)CC4)cc3)nc2n1-c1ccc2c(n1)[C@@](O)(CC)CC2	–	–	SW837, NOD/SCID mice, xenograft	oral, 80 mg/kg once daily, day 35	reference: vehicle	tumour growth inhibition	82.9%
CC1(C)CCC(CN2CCN(c3ccc(C(=O)NS(=O)(=O)c4ccc(NCC5CCOCC5)c([N+](=O)[O-])c4)c(Oc4cnc5[nH]ccc5c4)c3)CC2)=C(c2ccc(Cl)cc2)C1	–	cell killing	primary canine neoplastic T cells, dog 19	24 h	–	EC50	50 nM
Cc1n[nH]c2ccc(-c3cc(OC[C@@H](N)Cc4ccccc4)cnc3-c3ccoc3)cc12	–	kinase binding, competitor, MIB/MS competition, measured: HRR25	Candida albicans cell lysate	10 µM	reference: DMSO	log2 fold change	-1.89
C[C@@H](NC(=O)N1C(=O)[C@H](Cc2ccnc(N)c2)[C@H]1C(=O)O)C1CCCCC1	–	–	human	iv infusion, 1.0 mg/kg/h, 24 h	reference: baseline	time to ACT Emax	96 h
CSCCNc1nc(SCCC(F)(F)F)nc2c1ncn2[C@@H]1O[C@H](COP(=O)(O)OP(=O)(O)C(Cl)(Cl)P(=O)(O)O)[C@@H](O)[C@H]1O	–	platelet aggregation, light transmittance aggregometry	human, platelet-rich plasma	dose not given, 15 min, IPA above 80 %, together with: TRAP 15 µM	reference: patients	patients with IPA above threshold	0%
NC(=O)c1cnc2[nH]ccc2c1N[C@@H]1[C@@H]2CC3C[C@H]1C[C@@](O)(C3)C2	–	CD4+ effector memory T cells, flow cytometry	Japanese humans, peripheral blood	200 mg single dose	reference: baseline	percent change	-0.33%
C/C(=N\c1nc(N)nc(/N=C(\C)c2c(O)c3ccccc3oc2=O)n1)c1c(O)c2ccccc2oc1=O	–	–	–	1 mg/mL, 60 min	–	DPPH radical scavenging	94.1%
CCCCC1(CCCC)CN(c2ccccc2)c2cc(SC)c(OCC(=O)N[C@@H](C(=O)NCC(=O)O)c3ccccc3)cc2S(=O)(=O)C1	–	measured: 7α-hydroxy-4-cholesten-3-one	human, plasma	2.5 mg once daily, day 13	–	plasma C4	31.4 ng/mL
Cc1ccc(C(=O)Nc2ccnc(S(N)(=O)=O)c2)c(N2CCCC(F)(F)CC2)n1	–	–	rhesus macaque	intravenous, 1.3 mg/kg, together with: laser 1400 mA	reference: pre-treatment	laser-evoked flare size	decreased
COc1cc(Nc2ncc3c(n2)-c2ccc(Cl)cc2C(c2c(F)cccc2OC)=NC3)ccc1C(=O)O	–	–	female NOD/scid mice, ALL-2 B-precursor ALL xenograft	20.8 mg/kg, 5 days weekly, score scale 0 to 10	direction not given	median response score	10
CC(C)[C@H](N)C(=O)O	–	binding, MIDAS equilibrium dialysis LC-MS	A2AR-BRIL thermostabilized	concentration not given	reference: no-protein control	log2 fold change	0.0325
C[C@H](CS)C(=O)N1CCC[C@H]1C(=O)O	–	LC-MS/MS, measured: extracellular Met-enkephalin	mouse striatal brain slices	10 µM, 20 min, together with: 50 mM KCl	–	Met-enkephalin concentration	4030 pM and 2730 pM and 1470 pM and 2790 pM and 2290 pM and 1620 pM

SMILES	tested on	test	test system	conditions	how to read	measurement	result
N#Cc1ccc2c(c1)[C@H]1CCCN(C(=O)c3ccc4[nH]cnc4c3)[C@H]1C2	–	–	T2DM patients with overweight or obesity, plasma	oral, 80 mg, day 15 (360 h), multiple dosing, mean	–	fasting plasma insulin	15.3 mU/L
CCCCOc1nc(N)c2c(n1)N(Cc1cccc(CN3CCCC3)c1)CC(=O)N2	–	qPCR	human, blood	dose not given, three dosing periods	reference: baseline	MX1 mRNA level	increased
Nc1ncnc2c1ncn2[C@@H]1O[C@H](COP(=O)(O)OP(=O)(O)O)[C@@H](O)[C@H]1O	–	binding, MIDAS equilibrium dialysis LC-MS	A2AR-BRIL thermostabilized	concentration not given	reference: no-protein control	log2 fold change	-0.474
Oc1ccc(Br)cc1C=NCCN1CCOCC1	–	hydroxyl radical scavenging	–	80 µM	–	inhibition	15%
CC(CCc1ccc(O)cc1)NCCc1ccc(O)c(O)c1 (centres unmarked)	–	–	anaesthetised instrumented rat	iv infusion, 1 µg/kg/min, 15 min, unit not given	reference: baseline	stroke volume change	2.9 ± 2.2
Cn1cc(-c2ccc(-c3cncc(Cl)c3N3CCC4(CCNC4=O)CC3)cc2)cn1	COLO 205	gene expression, microarray, measured: SLC39A8 mRNA	–	concentration not given, 6 h	reference: untreated cells	log2 fold change	1.82
Cn1cc([C@H]2C[C@H]3CSC(N)=N[C@@]3(c3ccc(F)cc3F)CO2)cn1	–	measured: Aβx-40	Mus musculus wild-type, cerebrospinal fluid	subcutaneous, 10 mg/kg, 6 h	–	Aβ40 level	1 ng/mL
CC(Cc1ccc(O)c(O)c1)C(C)Cc1ccc(O)c(O)c1 (centres unmarked)	–	DPPH	methanol	concentration not given, 30 min	–	DPPH radical scavenging	86.99 ± 0.06%
Cc1cc([C@H]2C[C@H]3[C@@H](CF)SC(N)=N[C@@]3(c3ccc(F)cc3F)CO2)on1	–	measured: Aβx-40	Mus musculus wild-type, cerebrospinal fluid	subcutaneous, 30 mg/kg, 9 h	–	Aβ40 level	0.87 ng/mL
N#Cc1ccn2c(-c3ccncc3)c(-c3ccc(F)cc3)nc2c1	–	kinase binding, competitor, MIB/MS competition, measured: AKL1	Candida albicans cell lysate	1 µM	reference: DMSO	log2 fold change	-0.16
COc1ccc(F)cc1C(=O)NCc1ccc(-c2nn([C@@H](C)C(F)(F)F)c(N)c2C(N)=O)cc1	–	–	Waldenström macroglobulinemia patients	dose not given, at least one prior BTK inhibitor	–	overall response rate	69%
O=C1O[C@H]([C@@H](O)CO)C(O)=C1O	–	–	–	1.0 mg/mL, 30 min, 25 °C	–	DPPH scavenging	96.1%
COc1cccc2c1C(=O)c1c(O)c3c(c(O)c1C2=O)C[C@@](O)(C(=O)CO)C[C@@H]3O[C@H]1C[C@H](N)[C@H](O)[C@H](C)O1	–	organoid viability, CellTiter-Glo 3D	sample C colorectal cancer organoid, human	6 days	–	IC50	189 nM
CN(C)C(=O)c1cc2cnc(Nc3ccc(N4CCNCC4)cn3)nc2n1C1CCCC1	–	RNA-seq GSEA, measured: HALLMARK_APOPTOSIS	MB002 tumour	concentration not given, in vivo	reference: vehicle, direction not given	normalized enrichment score	-1.14
OC(CCN1CCCCC1)(c1ccccc1)C1CC2C=CC1C2 (centres unmarked)	–	resting-state EEG	healthy elderly humans	oral, 2 mg, eyes open, LS mean	–	EEG Beta1-power Fz-Cz	2.3 µV²
CCn1cc(-c2cc(Cn3ccoc3=N)cc3c2CCN([C@@H](C)c2cc(OC)ccn2)C3=O)c(C(F)(F)F)n1	HEC108	cell growth	–	120 h	–	EC50	24.5 nM
C[C@H](Oc1ccc(Br)cc1-c1ccon1)C(=O)O	–	first response latency	human, tibialis anterior muscle	200 mg, 15 Hz, single ascending dose	–	difference from placebo	0.052%
Cn1cc(Nc2nccc(-c3ccc4c(c3)CN(C3COC3)CC[C@H]4NC(=O)c3cn(C(C)(C)C)nn3)n2)cn1	–	measured: Hepatic Fibrosis Signaling Pathway	splenic B cells, mouse	in vivo, 30 mg/kg, IgD-activated B cells	reference: vehicle, positive = activation	pathway activation z-score	2.65
COc1cc(CC(=O)O)ccc1O	–	binding, MIDAS equilibrium dialysis LC-MS	A2AR-BRIL thermostabilized	concentration not given	reference: no-protein control	log2 fold change	-0.764
c1ccc(-c2n[nH]cc2-c2ccnc3ccccc23)nc1	–	kinase binding, competitor, MIB/MS competition, measured: FPK1	Candida albicans cell lysate	100 nM	reference: DMSO	log2 fold change	1.45
CCCCCN1C[C@H](O)[C@@H](O)[C@H](O)[C@@H]1CO	–	RNA sequencing, measured: 327 disease-specific DEGs	Hexb-/- mouse, hippocampus	300 mg/kg/day	direction not given	genomic disease score	0.52
CO[C@H]1CC[C@H](N2C(=O)CNc3ncc(-c4ccc(C(C)(C)O)nc4)nc32)CC1	–	flow cytometry	stimulated monocytes, human, blood	45 mg single dose, 3 h, median	reference: baseline	pAKT change from baseline	-59.7%
CCCCCCCC(=O)O	–	binding, MIDAS equilibrium dialysis LC-MS	A2AR-BRIL thermostabilized	concentration not given	reference: no-protein control	log2 fold change	-0.13
CCO[C@H]1CCN(Cc2c(OC)cc(C)c3[nH]ccc23)[C@H](c2ccc(C(=O)O)cc2)C1	–	–	PNH patients, blood	oral, 25 mg then 100 mg, week 8, mean percent change	reference: baseline	C3d-positive type III RBCs	-84%
CCn1cc(-c2cc(Cn3ccnc3)cc3c2CCN([C@H](c2cc(OC)ccn2)C2CC2)C3=O)c(C(F)(F)F)n1	Pfeiffer	cell growth	–	120 h	–	EC50	2260 nM
Cc1coc([C@H]2C[C@H]3[C@@H](CF)SC(N)=N[C@@]3(c3ccc(F)cc3F)CO2)n1	–	measured: Aβx-40	wild-type mouse, brain	subcutaneous, 80 mg/kg, 14 h	–	brain Aβ40 level	2 ng/g

A few entries again:
SMILES	tested on	test	test system	conditions	how to read	measurement	result
N#Cc1ccc2c(c1)[C@H]1CCCN(C(=O)c3ccc4[nH]cnc4c3)[C@H]1C2	–	–	T2DM patients with overweight or obesity, plasma	oral, 80 mg, day 15 (360 h), multiple dosing, mean	–	fasting plasma insulin	15.3 mU/L
CCCCOc1nc(N)c2c(n1)N(Cc1cccc(CN3CCCC3)c1)CC(=O)N2	–	qPCR	human, blood	dose not given, three dosing periods	reference: baseline	MX1 mRNA level	increased
Nc1ncnc2c1ncn2[C@@H]1O[C@H](COP(=O)(O)OP(=O)(O)O)[C@@H](O)[C@H]1O	–	binding, MIDAS equilibrium dialysis LC-MS	A2AR-BRIL thermostabilized	concentration not given	reference: no-protein control	log2 fold change	-0.474
Oc1ccc(Br)cc1C=NCCN1CCOCC1	–	hydroxyl radical scavenging	–	80 µM	–	inhibition	15%
CC(CCc1ccc(O)cc1)NCCc1ccc(O)c(O)c1 (centres unmarked)	–	–	anaesthetised instrumented rat	iv infusion, 1 µg/kg/min, 15 min, unit not given	reference: baseline	stroke volume change	2.9 ± 2.2
Cn1cc(-c2ccc(-c3cncc(Cl)c3N3CCC4(CCNC4=O)CC3)cc2)cn1	COLO 205	gene expression, microarray, measured: SLC39A8 mRNA	–	concentration not given, 6 h	reference: untreated cells	log2 fold change	1.82
Cn1cc([C@H]2C[C@H]3CSC(N)=N[C@@]3(c3ccc(F)cc3F)CO2)cn1	–	measured: Aβx-40	Mus musculus wild-type, cerebrospinal fluid	subcutaneous, 10 mg/kg, 6 h	–	Aβ40 level	1 ng/mL
CC(Cc1ccc(O)c(O)c1)C(C)Cc1ccc(O)c(O)c1 (centres unmarked)	–	DPPH	methanol	concentration not given, 30 min	–	DPPH radical scavenging	86.99 ± 0.06%
